Experimental data of several laboratories.
Several values in a cell are separate wells, animals, samples, runs or records. ± gives the spread as reported.
TST: Thiosulfate sulfurtransferase (TST, Bos taurus, UniProt P00586)
fabG: 3-oxoacyl-[acyl-carrier-protein] reductase FabG (fabG, Pseudomonas aeruginosa, UniProt O54438)
MAOA: Amine oxidase [flavin-containing] A (MAOA, Homo sapiens, UniProt P21397)
MLLT1 with AF4: Protein ENL, with AF4 (MLLT1, Homo sapiens, UniProt Q03111)

| SMILES | target | test | test system | setting | IC50 |
| --- | --- | --- | --- | --- | --- |
| COc1ccc(S(=O)(=O)Nc2ccc3oc(-c4ccc(NS(=O)(=O)c5cc(Br)ccc5OC)cc4)nc3c2)cc1 | TST | enzyme activity, inhibitor |  | native rhodanese counter-screen | > 100 µM |
| N#Cc1c(N)nc(-c2ccccc2)nc1C(F)(F)F | fabG |  |  |  | 0.04 µM |
| CCCCCCCCC | uncharacterized protein (Bradysia odoriphaga, UniProt A0A2S0X9G4) | binding, competitive fluorescence displacement |  | pH 7.4 | > 50 µM |
| O=S(=O)(Nc1ccc(-c2nc3cc(NS(=O)(=O)c4ccc(Cl)s4)ccc3o2)cc1)c1ccc(Cl)c(C(F)(F)F)c1 | TST | enzyme activity, inhibitor |  | native rhodanese counter-screen | > 100 µM |
| C=CC(C)=CCC=C(C)C | uncharacterized protein (Bradysia odoriphaga, UniProt A0A2S0X9G4) | binding, competitive fluorescence displacement |  | pH 7.4 | > 50 µM |
| COc1ccc(S(=O)(=O)Nc2ccc(-c3nc4cc(NS(=O)(=O)c5ccc(OC)cc5)ccc4o3)cc2)cc1 | TST | enzyme activity, inhibitor |  | native rhodanese counter-screen | > 100 µM |
| CC(C)C[C@H](NC(=O)[C@H](Cc1cccc2ccccc12)NC(=O)OCc1ccccc1)C(=O)NC(C[C@@H]1CCNC1=O)C1CO1 (some centres unmarked) | Genome polyprotein, 3C-like protease (ORF1, Hu/NV/NV/1968/US, UniProt Q83883) | protease activity, inhibitor, FRET | GI.1 | 37 °C | > 100 µM |
| Cn1cc2c(C(=O)O)ccc(NS(=O)(=O)c3ccc(OCC4CCC4)c(Cl)c3)c2n1 | PDE9A (Homo sapiens, UniProt O76083) | antagonist |  | off-target panel | > 200 µM |
| O=c1ccc2ccccc2o1 | uncharacterized protein (Drosophila suzukii, UniProt A0AB39ZGK5) | binding, bis-ANS competition fluorescence |  | pH 7.4, together with: bis-ANS | 35.6 µM |
| C[C@H]1[C@H](F)C[C@@H](C(=O)NCc2cc(-c3cnc(C(F)(F)F)nc3)ncc2C(F)(F)F)N1S(=O)(=O)c1ccc(F)cc1 | TRPM8 (Homo sapiens, UniProt Q7Z2W7) | calcium response, antagonist | human cells | together with: menthol 50 µM | 10.7 µM |
| CCCCCCCCC=O | uncharacterized protein (Bradysia odoriphaga, UniProt A0A2S0X9G4) | binding, competitive fluorescence displacement |  | pH 7.4 | > 50 µM |
| O=C(Nc1cccc(Cl)c1)c1ccc2c(c1)C(=O)NC2=O | MAOA |  |  |  | > 40 µM |
| COc1cc(O)c(CC=C(C)C)c(O)c1C(=O)/C=C/c1ccc(O)cc1 | Thyroxine 5-deiodinase (DIO3, Homo sapiens, UniProt P55073, A240R) | inhibitor |  | A240R variant | 0.27 µM and 0.23 µM and 0.21 µM |
| O=c1nc(SCc2cc(F)cc(C(F)(F)F)c2)nc(SCc2ccc3sccc3c2)[nH]1 | TOP2A (Homo sapiens, UniProt P11388) | ATPase activity, ATP-competitive inhibitor |  | together with: ATP 0.5 mM | 13.3 µM |
| CCCCCCCCCCCCCCCCC | uncharacterized protein (Bradysia odoriphaga, UniProt A0A2S0X9G4) | binding, competitive fluorescence displacement |  | pH 7.4 | > 50 µM |
| O=S(=O)(Nc1ccc(-c2nc3cc(NS(=O)(=O)c4cccc5ccccc45)ccc3o2)cc1)c1cccc2ccccc12 | TST | enzyme activity, inhibitor |  | native rhodanese counter-screen | > 100 µM |
| COc1cc(/C=C/C(O)=C/C(=O)/C=C/c2ccc(O)cc2)ccc1O | ATP2A1 (Oryctolagus cuniculus, UniProt P04191) | ATPase activity, inhibitor | rabbit hind leg microsomes | pH 7.3, together with: 0.22 mM ATP | 6.1 µM |
| COc1ccccc1Nc1cccc2nccnc12 | fabG | enzyme activity, inhibitor, NADPH fluorescence |  | reverse reaction, geometric mean, together with: 3-OH-decanoyl-NAC, NADP | 6.4 µM |
| CCC(CC)COC(=O)[C@H](C)N[P@](=O)(OC[C@H]1O[C@@](C#N)(c2ccc3c(N)ncnn23)[C@H](O)[C@@H]1O)Oc1ccccc1 | Cocaine esterase (CES2, Homo sapiens, UniProt O00748) | enzyme activity, inhibitor |  | together with: fluorescein diacetate | 0.121 µM |
| CC[C@@H]1[C@H](F)C(=O)N[C@@H]1COc1nccc2cc(C(N)=O)c(OC)cc12 | TNIK (Homo sapiens, UniProt Q9UKE5) | ATP-site binding, ActivX kinase profiling | THP-1 cell lysate | ZC2/TNIK Lys1 probe peptide | > 5 µM |
| O=C(Nc1ccccc1Br)c1ccc2c(c1)C(=O)NC2=O | MAOA |  |  |  | > 40 µM |
| CN1CCN(c2ccc(Nc3ncc4cc(C#N)c(=O)n(C5CCCC5)c4n3)cc2)CC1 | MYLK2 (Homo sapiens, UniProt Q9H1R3) |  |  |  | 0.524 µM |
| Cn1ncc2c(NCCO)nc(Nc3ccc(F)c(F)c3)nc21 | fabG | enzyme activity, inhibitor, NADPH fluorescence |  | reverse reaction, geometric mean, together with: 3-OH-decanoyl-NAC, NADP | 4 µM |
| CN1C(=O)[C@@H](Cc2ccc(O)cc2)NC(=O)CNC(=O)[C@H](Cc2ccc3ccccc3c2)NC(=O)[C@H](CCCNC(=N)N)NC(=O)[C@H]1CCCNC(=O)CCCCNC(=O)CCCCNC(=O)CN1CCN(CC(=O)O)CCN(CC(=O)O)CCN(CC(=O)O)CC1 | CXCR4 (Homo sapiens, UniProt P61073) |  |  |  | 0.123 ± 0.025 µM |
| CC(C)[C@H](NC(=O)OCc1ccccc1)C(=O)N[C@H](C=O)Cc1ccccc1 | Calpain-2 catalytic subunit (Homo sapiens, UniProt P17655) |  |  |  | 0.11 ± 0.01 µM |
| COc1ccc(NC(=O)c2ccc3c(c2)C(=O)NC3=O)cc1 | MAOA |  |  |  | > 40 µM |
| c1ccc(Oc2ccc(Nc3ccc4ncc(OCC5CCNCC5)nc4c3)cc2)cc1 | MLLT1 with AF4 | AlphaScreen |  |  | 1.5 ± 0.39 µM |

| SMILES | target | test | test system | setting | IC50 |
| --- | --- | --- | --- | --- | --- |
| O=C1C[C@@H](c2ccc(O)cc2)Oc2cc(O)cc(O)c21 | uncharacterized protein (Drosophila suzukii, UniProt A0AB39ZGK5) | binding, bis-ANS competition fluorescence |  | pH 7.4, together with: bis-ANS | 41.5 µM |
| COc1c(Br)cccc1C(=O)Nc1ccc(Sc2nc3ccccc3s2)c(Cl)c1 | TST | enzyme activity, inhibitor |  | native rhodanese counter-screen | > 100 µM |
| Cc1cnc(-c2ccc(-c3ccc(NC(=O)Nc4c(F)cc(F)cc4F)cc3F)c3c2C(=O)NC3)[nH]1 | LCK (Homo sapiens, UniProt P06239) | enzyme activity, inhibitor, mobility shift |  | together with: ATP 1 mM | 0.0117 µM |
| O=C(Nc1ccc(Cl)c(F)c1)c1ccc2c(c1)C(=O)NC2=O | MAOA |  |  |  | > 40 µM |
| Cc1ccc(NC(=O)c2ccc(C)c(C(F)(F)F)c2)cc1C#Cc1nn(C2CCC(O)CC2)c2ncnc(N)c12 (centres unmarked) | RPS6KA1 (Homo sapiens, UniProt Q15418) | inhibitor, radiometric kinase |  | together with: ATP 10 µM | 0.559 µM |
| O=C(NO)c1ccc(Cn2cnc3c(Nc4ccc(Cl)cc4)ncnc32)cc1 | AKT2 (Homo sapiens, UniProt P31751) |  |  | together with: ATP 10 µM | > 20 µM |
| Cc1[nH]c(N)nc1CCC(=O)c1ccccc1 | HVCN1 (Homo sapiens, UniProt Q96D96) | proton current, inhibitor, inside-out patch clamp | Xenopus laevis oocytes | pH 6.0 | 72.1 ± 3.7 µM |
| CCCCCC/C=C\CCCCCCCCCCCCCCC | uncharacterized protein (Drosophila suzukii, UniProt A0AB39ZCT4) | binding, bis-ANS competition fluorescence |  | pH 7.4, together with: bis-ANS | > 50 µM |
| CCCCCCCC=O | uncharacterized protein (Bradysia odoriphaga, UniProt A0A2S0X9G4) | binding, competitive fluorescence displacement |  | pH 7.4 | > 50 µM |
| O=S(=O)(Nc1ccc(-c2nc3cc(NS(=O)(=O)c4ccccc4)ccc3o2)cc1)c1ccccc1 | TST | enzyme activity, inhibitor |  | native rhodanese counter-screen | > 100 µM |
| CCCCCCCCCCCCCCCCCCCCCCC | uncharacterized protein (Drosophila suzukii, UniProt A0AB39ZCT4) | binding, bis-ANS competition fluorescence |  | pH 7.4, together with: bis-ANS | > 50 µM |
| O=C(Nc1ccccc1)c1ccc2c(c1)C(=O)NC2=O | MAOA |  |  |  | > 40 µM |
| CCCCCC/C=C\CCCCCCCCCCOC(C)=O | uncharacterized protein (Drosophila suzukii, UniProt A0AB39ZGK5) | binding, bis-ANS competition fluorescence |  | pH 7.4, together with: bis-ANS | > 50 µM |
| CCn1c(-c2nc3ccc(C(=O)N4CCCC(N)C4)cc3n2C)cc2ccccc21 (centres unmarked) | HRH1 (Homo sapiens, UniProt P35367) | antagonist, intracellular Ca2+ luminescence |  |  | > 39.8 µM |
| NC(=O)c1sc(-c2ccccc2)cc1NC(=O)c1cccs1 | fabG | enzyme activity, inhibitor, NADPH fluorescence |  | reverse reaction, geometric mean, together with: 3-OH-decanoyl-NAC, NADP | 6.6 µM |
| CCCCCCCCCCCC | uncharacterized protein (Bradysia odoriphaga, UniProt A0A2S0X9G4) | binding, competitive fluorescence displacement |  | pH 7.4 | > 50 µM |
| COc1ccc(OC)c(NC(=O)N2CCOc3ccc(C)cc32)c1 | fabG | enzyme activity, inhibitor, NADPH fluorescence |  | reverse reaction, geometric mean, together with: 3-OH-decanoyl-NAC, NADP | 10 µM |
| CN1CCC(CNc2ccc3ncc(-c4cccc(OC(F)(F)F)c4)n3n2)CC1 | ROCK1 (Homo sapiens, UniProt Q13464) | binding, KINOMEscan binding |  | top concentration 10 µM | 0.508 µM |
| CC[N+](CC)(CC(=O)Nc1c(C)cccc1C)Cc1ccccc1 | uncharacterized protein (Drosophila suzukii, UniProt A0AB39ZCT4) | binding, bis-ANS competition fluorescence |  | pH 7.4, together with: bis-ANS | > 50 µM |
| CCOc1ccccc1C(=O)Nc1noc2ccccc12 | fabG | enzyme activity, inhibitor, NADPH fluorescence |  | reverse reaction, geometric mean, together with: 3-OH-decanoyl-NAC, NADP | 3.6 µM |
| O=C(Nc1ccc(F)c(Br)c1)c1ccc2c(c1)C(=O)NC2=O | MAOA |  |  |  | > 40 µM |
| Fc1ccc(Oc2ccc(Nc3ccc4ncc(OCC5CCNCC5)nc4c3)cc2)cc1 | MLLT1 with AF4 | AlphaScreen |  |  | 1.2 ± 0.12 µM |
| CC(=O)OCC(C)C | uncharacterized protein (Drosophila suzukii, UniProt A0AB39ZCT4) | binding, bis-ANS competition fluorescence |  | pH 7.4, together with: bis-ANS | > 50 µM |
| CCCCCCCCCCCCCC | uncharacterized protein (Bradysia odoriphaga, UniProt A0A2S0X9G4) | binding, competitive fluorescence displacement |  | pH 7.4 | > 50 µM |
| Cc1ccc(CNC(=O)N2CCC[C@]3(CCN(Cc4ccc(Cl)c(Cl)c4)C3)C2)cc1 | ERN1 (Homo sapiens, UniProt O75460) | RNase activity, inhibitor, FRET suppression |  | 90 min preincubation, together with: XBP1 RNA substrate | 17.1 µM |
| CCCCCC/C=C\CC/C=C\CCCCCCCCCCCCCCC | uncharacterized protein (Drosophila suzukii, UniProt A0AB39ZGK5) | binding, bis-ANS competition fluorescence |  | pH 7.4, together with: bis-ANS | > 50 µM |
